Assay results collected from several papers.
Lines come from different studies, so protocols differ. Numbers after ± are the reported error.

CC[C@H](C)[C@H](NC(=O)[C@H](Cc1ccccc1)NC(=O)[C@H](CCC(=O)O)NC(=O)[C@H](CCCNC(=N)N)NC(=O)[C@H](C)NC(=O)[C@H](C)NC(=O)[C@H](CCC(N)=O)NC(=O)[C@H](CCC(=O)O)NC(=O)[C@H](CCC(=O)O)NC(=O)[C@H](CC(C)C)NC(=O)[C@H](Cc1ccc(O)cc1)NC(=O)[C@H](CO)NC(=O)[C@H](CO)NC(=O)[C@@H](NC(=O)[C@H](CC(=O)O)NC(=O)[C@H](CO)NC(=O)[C@@H](NC(=O)[C@H](Cc1ccccc1)NC(=O)[C@@H](NC(=O)CNC(=O)[C@H](CCC(=O)O)NC(=O)[C@H](C)NC(=O)CCc1cnc[nH]1)[C@@H](C)O)[C@@H](C)O)C(C)C)C(=O)N[C@@H](C)C(=O)N[C@@H](Cc1c[nH]c2ccccc12)C(=O)N[C@@H](CC(C)C)C(=O)N[C@H](C(=O)N[C@@H](CCCNC(=N)N)C(=O)NCC(=O)N[C@@H](CCCNC(=N)N)C(=O)N[C@@H](CCCCNC(=O)COCCOCCNC(=O)COCCOCCNC(=O)CC[C@H](NC(=O)CCCCCCCCCCCCCCCCC(=O)O)C(=O)O)C(=O)NCC(=O)NCC(=O)N[C@@H](CO)C(=O)N[C@@H](CCSC)C(=O)N[C@H](C(=O)N[C@@H](CCCCNc1c(NCCCCCN(O)C(=O)CCC(=O)NCCCCCN(O)C(=O)CCC(=O)NCCCCCN(O)C(C)=O)c(=O)c1=O)C(=O)O)C(C)C)C(C)C [zirconium-89 labelled] has a tissue uptake of 0.222 %ID/g (ex vivo gamma counting; Sprague-Dawley rat, male, knee; intravenous, 1 nmol, 72 h).
Under “cobalt in faeces”, O.O.O.O.O.O.[Cl-].[Cl-].[Co+2] is recorded as 1.69 µg/g (rat male, faeces; oral, 10 mg/kg single, day 3; reference: vehicle control subtracted).
For COc1cc2c(Oc3ccc4[nH]c(C)cc4c3F)ccnc2cc1OCC1(N)CC1, “ALT elevation incidence” read 0% (paediatric refractory sarcoma patients; 10 mg).
Under “nervous system disorder TEAE”, Cn1c(-c2ccc(C(N)=O)cc2F)nnc1C(C)(C)Oc1c(F)cc(Cl)cc1F is recorded as 0% (human; oral, 10 mg, single ascending dose).
CCc1ccc(CC/C=C/c2ccc3c(c2)C(=O)CC3)cc1 — result for “GGT serum activity”: 0.33 U/L (Sprague-Dawley rat, female; oral, 120 mg/kg/day, 14 days).
For CC(C)(C)c1cc(-n2nc3ccccc3n2)c(O)c(C(C)(C)C)c1, “daily dermal uptake, percentile” read 24.4 ng/kg body weight/day (exposure assessment; human, age 1-2 years; concentration not given, spray sunscreen, 95th percentile).
For CC1(C)c2nc(-c3ccc(F)cc3)c(Nc3ccc(F)cc3)n2CCN1C(=O)CN, “concentration at 24 h” read 77 nM (NMRI mouse Plasmodium berghei-infected, blood; oral, 5 mg/kg, 24 h, monotherapy).
For C[C@H]1CN(C(=O)CC#N)[C@]12CCN(c1ncnc3[nH]ccc13)C2, “AUC at NOAEL” read 79 ng·h/mL (minipig, female; dermal, 20 mg/kg repeated, 9 months).
COc1ccc(-c2c(-c3ccc(C#N)c(F)c3)nc(N3CCC(N)CC3)n(C)c2=O)cc1F — result for “treatment-related adverse event incidence”: 6% (refers to: Pruritus; neuroendocrine neoplasm patients; oral, 60 mg, any grade, dose expansion).
O=C1Nc2cc3[nH]nc(-c4ccncc4)c3cc2CN1Cc1ccccc1: “patients with TEAE” 15% (refers to: macular edema; patients with advanced solid tumours; intravenous, dose not given).
CN1CC[C@@H](c2c(O)cc(O)c3c(=O)cc(-c4ccc(C(F)(F)F)cc4Cl)oc23)[C@@H]1CO: “patients with adverse event” 5% (refers to: Hyperglycemia; relapsed or refractory haematological malignancies; oral, dose not given, grade 3 to 4, all arms).
The tissue uptake of C[C@@H]1NC(=O)[C@H](CCCCNC(=O)CO/N=C/C(=O)NCCCC[C@@H]2NC(=O)[C@@H](Cc3ccccc3)NC(=O)[C@H](CC(=O)O)NC(=O)CNC(=O)[C@H](CCCNC(=N)N)NC2=O)NC(=O)CNC(=O)[C@@H]2CCCN2C(=O)[C@H](CCCCNC(=O)CO/N=C/C(=O)NCCCC[C@@H]2NC(=O)[C@@H](Cc3ccccc3)NC(=O)[C@H](CC(=O)O)NC(=O)CNC(=O)[C@H](CCCNC(=N)N)NC2=O)NC(=O)[C@H](CCCCNC(=O)CCNC(=O)CCNC(=O)CCNC(=O)[C@H](CCCCN)NC(=O)[C@H](Cc2ccccc2)NC(=O)CNC(=O)CN2CCCNCCNCCCNCC2)NC(=O)[C@H](CCCCNC(=O)CO/N=C/C(=O)NCCCC[C@@H]2NC(=O)[C@@H](Cc3ccccc3)NC(=O)[C@H](CC(=O)O)NC(=O)CNC(=O)[C@H](CCCNC(=N)N)NC2=O)NC(=O)CNC(=O)[C@@H]2CCCN2C(=O)[C@H](CCCCNC(=O)CO/N=C/C(=O)NCCCC[C@@H]2NC(=O)[C@@H](Cc3ccccc3)NC(=O)[C@H](CC(=O)O)NC(=O)CNC(=O)[C@H](CCCNC(=N)N)NC2=O)NC1=O [copper-64 labelled] is reported as 0.13 ± 0.02 %ID/g (normal mice, blood; intravenous, 0.74 MBq, 24 h post-injection).
For O=S(=O)(Nc1ccccc1)c1ccc(NC(=S)Nc2ccccc2)cc1, “relative organ weight” read 0.31% (mouse, male, spleen; oral, 20 mg/kg daily, 14 days; reference: body weight).

Some of these lines once more:
Under “cobalt in faeces”, O.O.O.O.O.O.[Cl-].[Cl-].[Co+2] is recorded as 1.69 µg/g (rat male, faeces; oral, 10 mg/kg single, day 3; reference: vehicle control subtracted).
